Experimental data of several laboratories.
Numbered parts are unrelated; each lists some results of a single study.

Block 1 — method: RNA Bind-n-Seq; form: RNA; sample: in vitro; tested at: 1 µM; notes: whole 134-nt RNA, ends assumed; added: 150 mM KCl; reference: input library; reading: higher = stronger binding; endpoint: log2 enrichment
Target: Ras GTPase-activating protein-binding protein 1, RRM domain (G3BP1, Homo sapiens, UniProt Q13283)
UniProt Q13283, sequence (whole entry, looked up): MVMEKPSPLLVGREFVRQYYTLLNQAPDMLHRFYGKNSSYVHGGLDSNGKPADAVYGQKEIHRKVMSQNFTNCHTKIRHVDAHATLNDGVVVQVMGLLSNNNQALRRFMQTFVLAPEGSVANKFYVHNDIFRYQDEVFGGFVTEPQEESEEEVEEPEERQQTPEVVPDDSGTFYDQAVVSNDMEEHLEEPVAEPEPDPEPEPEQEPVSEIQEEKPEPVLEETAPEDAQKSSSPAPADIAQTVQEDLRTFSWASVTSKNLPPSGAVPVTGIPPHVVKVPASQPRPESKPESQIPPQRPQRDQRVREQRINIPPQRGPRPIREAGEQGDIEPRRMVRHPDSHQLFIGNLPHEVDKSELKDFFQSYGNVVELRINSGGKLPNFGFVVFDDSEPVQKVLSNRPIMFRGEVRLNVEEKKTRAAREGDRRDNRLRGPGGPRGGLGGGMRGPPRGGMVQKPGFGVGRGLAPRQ
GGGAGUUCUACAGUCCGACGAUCAAGUCCUGUGCUACACAUCGUAUGUACCGAAUCGGGUUUGGGAAAGGGAAAAAGGGAAAGUAUUAUGUUACGCCGUUCGGAUCUGCACUUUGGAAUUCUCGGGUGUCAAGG: 0.65
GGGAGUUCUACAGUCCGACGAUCACAAAGCAGGUGGGCAUCUUUGGGAAGUGGGGCAAGGGGGGGAUAGGGAGGGGGGUAACACUUUGGGAACAGGUGGUCCCAGGUCGUUUCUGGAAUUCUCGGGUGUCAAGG: -0.411
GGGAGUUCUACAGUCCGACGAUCGUCCUGUGCUACACAUCGUAUGUACCGAAUCGGGUUUUUUUGGGAAAGGGUUUUUGGGAAAGUAUUAUGUUACGCCGUUCGGAUCUGCACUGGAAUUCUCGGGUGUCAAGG: 0.00699
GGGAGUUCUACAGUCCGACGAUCUCAAGUCCUGUGCUACACAUCGUAUGUACCGAAUCGGGAAAAAGGGAGGGUGGGAAAGUAUUAUGUUACGCCGUUCGGAUCUGCACUUCCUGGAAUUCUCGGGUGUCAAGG: 0.666
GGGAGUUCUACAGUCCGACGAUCGCAGGAAGUAAAAACAAAUGGAAAAGCUUCGGAUAGUGGCAGGGGUGGGGGUUGCUAAGGAAAGGGUGGGAUGGGAGUGGGUAAAGAGUUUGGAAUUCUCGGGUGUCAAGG: 1.65
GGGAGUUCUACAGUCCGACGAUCUCCUGUGCUACACAUCGUAUGUACCGAAUCAAAUUUUUAAAUUUUUUUAAAUUUUUAAAAAAGUAUUAUGUUACGCCGUUCGGAUCUGCAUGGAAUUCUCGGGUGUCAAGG: -0.207
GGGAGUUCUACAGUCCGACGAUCUAACUUUAGAGGAGGAUCUGAUGGAUAUGGCAGUGGACGUGGAUUUGGGGAUGGCUAUAAUGGGUAUGGACGAGGACCUGGAGGUGGCAAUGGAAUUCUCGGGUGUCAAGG: -0.298
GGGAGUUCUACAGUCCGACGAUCUCAAGUCCUGUGCUACACAUCGUAUGUACCGAAUCGGAAGGGGAAGGGGAAGGGGAAAGUAUUAUGUUACGCCGUUCGGAUCUGCACUUCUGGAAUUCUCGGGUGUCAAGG: 0.645
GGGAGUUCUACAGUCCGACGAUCUUAUUCUGUGUGACACCUGCCCUCGUGCCUACCACCUCGUCUGCCUUGAUCCUGAGCUUGACCGGGCUCCAGAGGGCAAAUGGAGCUGCCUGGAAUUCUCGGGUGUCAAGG: 0.121

Block 2 — method: RNA Bind-n-Seq; form: RNA; sample: in vitro; tested at: 365 nM; reference: no-protein control; reading: higher = stronger binding; endpoint: RBNS enrichment (R)
Target: RNA binding protein fox-1 homolog 2, RRM domain, GST-SBP tag (RBFOX2, Homo sapiens, UniProt O43251-10, residues 100-194)
Notes: natural RNA segment, single round, ends assumed
Residues (chain): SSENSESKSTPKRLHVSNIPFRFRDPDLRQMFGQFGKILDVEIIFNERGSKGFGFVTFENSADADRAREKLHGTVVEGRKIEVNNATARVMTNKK
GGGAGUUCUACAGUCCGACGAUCUUCCUACGAGAGGAGGAGACCUUCUGAGUGUGCCCUUUGGCCACGGACACUGUUGGGAACCAAACUCUGUCUUGGAGCCUCCUUUUAGCUCACUCCACAAGUAAAUGGAUUGGAAUUCUCGGGUGCCAA: 0.261
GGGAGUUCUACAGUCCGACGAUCAAUCAUGGUAUAUCCUCAGGAGAAUGUUCCGUGUCUCGCAACAACUAAUUAUAUUGCAAAUUAUUAGGGCUUCAUUGUAAUCUACUUUAUUAAUGAAAAAUGACAAAGCAUGGAAUUCUCGGGUGCCAA: 0.832
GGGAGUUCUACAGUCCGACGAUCCCUUCUCUCUGACAGCCCAUCUUCGUCAGGCCCAUUCCCAGGAUGUCAACUGUGUGGCUUGGAAUCCCAAGGAGCCAGGGCUCCUGGCCUCUUGUAGUGAUGAUGGGGAGUGGAAUUCUCGGGUGCCAA: 0.461
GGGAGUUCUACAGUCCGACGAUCUAAAAGUUAUAAUGUGUAUUUGUAAAUAAAUGAUGAGUGAAAAAAUAAAAAAAUUUUAAAAAGCCAAUGGUUUCAAUUCCUGAUGAUGCAAAGAAGUUAUUUGGACUUUUUGGAAUUCUCGGGUGCCAA: 1.23
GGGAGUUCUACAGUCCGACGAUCGCUACUUGGGAGGCUGAGGCAGGAGAAUCGCCUGAACCCAGGAAGCAGAUGUUGUACCGAGCUGAGAUCAUGCCAUUACACUCCAGCCUGGGCGACAGAACGAGACGCCAUGGAAUUCUCGGGUGCCAA: 1.73
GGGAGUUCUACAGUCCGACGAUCGAAAAGUAGCAUUCUAUAAAUACUAUUAAACAACUUAGCUAUAUUAUUUUUAAGUAUUAAAUUAUAUGUCAAGCAGUUAAAGUGAAUUUCAGAGUAAAAGUAAGGCAUGUUGGAAUUCUCGGGUGCCAA: 2.06
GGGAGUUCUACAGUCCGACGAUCUUCAAGCGGAAAACAUCUGAGAAUGGCUUUCCCAUAUUGCAUUACGGCAUGCAGAAGGCUUUAUUUUAAAGUCAUUCCAUCAGAGGUGUUCUCAGAAUUAGACCCCACCUUGGAAUUCUCGGGUGCCAA: 1.05
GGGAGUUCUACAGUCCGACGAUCUCUGAUGGAUGUAGUUUUCUUUUUUUAAAUUAGAAAUGCCACUUCUAUUGUAUUGUCUCACACAUGCUCUAUAUAAAUGGGAAAUGUUGAUUUUUUUGAUGAUAGACUAUUGGAAUUCUCGGGUGCCAA: 0.292

Block 3 — method: aptamer microarray, sandwich; form: DNA with 2'F-ANA; sample: in vitro; tested at: 200 nM; added: Cy3 exosite-II aptamer, 400 nM; reading: higher = stronger binding; endpoint: mean fluorescence intensity; sequence: GGTTGGTGTGGTTGG
Target: Prothrombin, mature alpha-thrombin (F2, Homo sapiens, UniProt P00734)
Notes: whole 15-mer aptamer, many near background
2'F-ANA at 1 2 5 7 10 12 13 15: 46.9 a.u.
2'F-ANA at 2 3 6 12 13 14 15: 376 a.u.
2'F-ANA at 2 3 6 7 8 9 11 12 13 15: 701 a.u.
2'F-ANA at 1 6 8 11 14 15: 59.8 a.u.
2'F-ANA at 2 3 4 9 10 11 12 13: 254 a.u.
2'F-ANA at 2 3 4 5 6 11 12: 145 a.u.
2'F-ANA at 1 4 6 7 10 12 13: 51.2 a.u.
2'F-ANA at 1 3 4 6 7 8 9: 218 a.u.
2'F-ANA at 3 4 5 6 7 8 9 13 15: 58.4 a.u.
2'F-ANA at 2 3 4 5 6 7 13 14: 48.8 a.u.
2'F-ANA at 1 2 4 5 8 10: 46.8 a.u.
2'F-ANA at 1 2 4 6 8 13 14: 48.8 a.u.
2'F-ANA at 1 8 9 13 14: 54.4 a.u.
2'F-ANA at 1 2 4 7 9 11 12 14: 59.8 a.u.
2'F-ANA at 1 2 3 4 6 7 9 10 12: 121 a.u.
2'F-ANA at 3 6 7 8 10 11 12 15: 508 a.u.
2'F-ANA at 7 8 9 13 15: 507 a.u.

Block 4 — method: universal PBM; form: double-stranded DNA, one strand shown; sample: in vitro; tested at: not given; reading: higher = stronger binding; endpoint: E-score
Target: Sal-like protein 4, full length isoform B (SALL4, Homo sapiens, UniProt Q9UJQ4-2, residues 1-616)
Notes: 8-mer, flanks averaged, mean of replicates
AATTAGTC: 0.243
CAATGGAC: 0.0313
ACGACGCG: -0.0354
CAAACTCG: -0.244
AAACGACT: -0.00797
AGTTACTC: 0.0954
CCTTTCTC: 0.0694
AGAACCAA: -0.164
AAGGTACG: 0.0912
ATCCGGTG: -0.149
AAAGTACA: 0.265
AACTCATG: 0.131
GGTCGCAA: -0.189
CCTCCCGA: -0.251
AAGACAAG: 0.148
ATCATAGG: 0.152

Block 5 — method: protein binding microarray; form: double-stranded DNA, one strand shown; sample: in vitro; tested at: not given; reference: not given; reading: higher = stronger binding; endpoint: E-score
Target: Histone acetyltransferase KAT6A, winged helix 2, GST fusion (KAT6A, Homo sapiens, UniProt Q92794, residues 85-181)
Notes: 8-mer, flanks averaged, mean of 2 arrays, mostly near background
Construct (chain): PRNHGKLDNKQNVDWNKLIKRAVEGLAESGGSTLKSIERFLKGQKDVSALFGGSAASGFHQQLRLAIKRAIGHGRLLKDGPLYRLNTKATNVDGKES
ATTTTCTA: -0.0243
ACACAACT: -0.17
ACGGGGAC: 0.0305
GAAAATTA: 0.0393
AAAGATGG: -0.134
GCACGAGA: 0.0492
GGATGCGA: -0.0498
AACGAGAA: -0.0398
GCCCAGCA: 0.133
CCTTTCAA: 0.0201
AGGTTCGC: -0.0424
CGTGATCC: -0.00897
ATGATGAG: -0.000605
CTGTAATA: 0.0677
ACCCCATA: -0.0596
ATCCCCAT: -0.126
CTCGAATA: -0.148
ATTTGCCA: -0.0921
CGCCCACA: 0.219
TATCCGAA: -0.0219
GAACACCA: 0.0111
CACCAATC: -0.132
CTCGCCGC: 0.172
GGGTAGAC: -0.162
ACGGTTGC: -0.184
